Results of several laboratories.
Every numbered part comes from another study and shows a few of its results, in no order. Positions count from the first letter of the parent shown.
Sequence of UniProt Q9ZSY8 (whole entry, looked up): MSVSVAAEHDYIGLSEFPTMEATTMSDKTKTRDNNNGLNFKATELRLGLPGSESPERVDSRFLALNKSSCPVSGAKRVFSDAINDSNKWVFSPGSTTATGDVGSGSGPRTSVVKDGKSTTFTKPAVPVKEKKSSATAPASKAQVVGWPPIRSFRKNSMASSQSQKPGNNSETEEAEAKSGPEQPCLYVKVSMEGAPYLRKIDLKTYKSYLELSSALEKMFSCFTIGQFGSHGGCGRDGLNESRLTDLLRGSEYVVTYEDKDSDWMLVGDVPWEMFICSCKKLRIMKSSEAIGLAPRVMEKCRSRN
Sequence of UniProt O24410 (whole entry, looked up): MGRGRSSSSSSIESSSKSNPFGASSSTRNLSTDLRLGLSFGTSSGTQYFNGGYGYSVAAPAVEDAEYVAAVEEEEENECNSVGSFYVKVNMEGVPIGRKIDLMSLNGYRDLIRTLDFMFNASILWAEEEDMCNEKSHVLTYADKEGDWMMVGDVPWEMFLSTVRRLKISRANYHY
Sequence of UniProt Q84WU6 (whole entry, looked up): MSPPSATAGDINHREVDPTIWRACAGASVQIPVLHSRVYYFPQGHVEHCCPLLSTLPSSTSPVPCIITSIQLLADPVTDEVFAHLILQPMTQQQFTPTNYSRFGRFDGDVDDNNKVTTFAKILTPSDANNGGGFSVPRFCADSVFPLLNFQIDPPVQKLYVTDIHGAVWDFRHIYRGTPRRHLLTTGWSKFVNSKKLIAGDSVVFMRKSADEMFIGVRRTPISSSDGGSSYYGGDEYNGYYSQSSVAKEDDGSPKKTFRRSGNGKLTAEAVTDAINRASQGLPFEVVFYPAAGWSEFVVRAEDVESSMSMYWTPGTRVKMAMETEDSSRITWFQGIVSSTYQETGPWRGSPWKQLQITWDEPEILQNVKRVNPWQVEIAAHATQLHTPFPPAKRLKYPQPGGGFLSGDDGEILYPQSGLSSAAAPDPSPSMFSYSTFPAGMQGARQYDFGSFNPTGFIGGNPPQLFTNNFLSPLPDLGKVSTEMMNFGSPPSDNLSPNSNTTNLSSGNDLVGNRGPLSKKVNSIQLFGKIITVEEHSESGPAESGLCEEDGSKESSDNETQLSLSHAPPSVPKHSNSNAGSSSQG
Sequence of UniProt O24409 (whole entry, looked up): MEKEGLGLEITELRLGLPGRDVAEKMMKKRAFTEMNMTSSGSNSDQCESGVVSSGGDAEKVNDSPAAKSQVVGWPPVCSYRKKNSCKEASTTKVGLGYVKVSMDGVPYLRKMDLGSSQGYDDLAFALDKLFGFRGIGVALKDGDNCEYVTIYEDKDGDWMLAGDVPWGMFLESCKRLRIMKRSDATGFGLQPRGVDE
Sequence of UniProt Q8L7G0 (whole entry, looked up): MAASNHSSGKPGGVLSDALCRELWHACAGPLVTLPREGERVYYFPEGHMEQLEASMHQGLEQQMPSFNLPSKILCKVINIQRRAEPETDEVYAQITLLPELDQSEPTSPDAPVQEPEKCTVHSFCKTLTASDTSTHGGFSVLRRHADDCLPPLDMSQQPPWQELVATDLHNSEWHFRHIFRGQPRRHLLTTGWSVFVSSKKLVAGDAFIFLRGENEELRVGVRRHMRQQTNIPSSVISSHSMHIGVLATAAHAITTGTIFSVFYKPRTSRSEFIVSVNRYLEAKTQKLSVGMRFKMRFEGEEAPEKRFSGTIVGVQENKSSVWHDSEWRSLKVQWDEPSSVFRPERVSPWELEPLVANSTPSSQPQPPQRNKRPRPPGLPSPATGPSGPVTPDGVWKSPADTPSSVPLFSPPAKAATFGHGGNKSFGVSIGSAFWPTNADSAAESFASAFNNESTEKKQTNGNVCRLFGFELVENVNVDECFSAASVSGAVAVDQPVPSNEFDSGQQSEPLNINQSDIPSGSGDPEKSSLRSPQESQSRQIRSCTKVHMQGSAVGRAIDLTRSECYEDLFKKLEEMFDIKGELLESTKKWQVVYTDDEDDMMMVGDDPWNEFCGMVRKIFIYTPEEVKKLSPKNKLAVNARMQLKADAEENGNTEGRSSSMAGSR
Sequence of UniProt Q9LQE8 (whole entry, looked up): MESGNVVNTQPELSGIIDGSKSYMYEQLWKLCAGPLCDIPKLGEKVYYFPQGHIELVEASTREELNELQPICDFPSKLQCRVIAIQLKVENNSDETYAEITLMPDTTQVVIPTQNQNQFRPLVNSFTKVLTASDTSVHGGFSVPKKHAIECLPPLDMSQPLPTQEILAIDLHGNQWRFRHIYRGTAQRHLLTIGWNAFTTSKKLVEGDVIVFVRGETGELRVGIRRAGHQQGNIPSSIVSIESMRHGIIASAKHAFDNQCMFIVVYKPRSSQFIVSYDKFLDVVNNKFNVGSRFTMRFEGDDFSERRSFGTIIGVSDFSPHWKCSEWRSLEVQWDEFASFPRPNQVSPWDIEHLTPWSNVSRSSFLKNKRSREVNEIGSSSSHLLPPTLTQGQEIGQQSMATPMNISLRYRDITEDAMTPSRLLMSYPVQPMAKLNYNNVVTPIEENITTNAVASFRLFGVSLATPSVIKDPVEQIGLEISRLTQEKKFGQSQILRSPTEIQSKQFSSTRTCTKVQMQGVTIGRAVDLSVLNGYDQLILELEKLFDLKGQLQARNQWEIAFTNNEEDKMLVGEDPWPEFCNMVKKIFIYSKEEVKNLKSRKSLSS
Sequence of UniProt Q8H174 (whole entry, looked up): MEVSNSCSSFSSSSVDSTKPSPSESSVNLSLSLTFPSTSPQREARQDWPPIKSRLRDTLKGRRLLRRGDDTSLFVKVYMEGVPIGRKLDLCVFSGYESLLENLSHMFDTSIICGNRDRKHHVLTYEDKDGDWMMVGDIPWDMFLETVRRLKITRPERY
Sequence of UniProt P93830 (whole entry, looked up): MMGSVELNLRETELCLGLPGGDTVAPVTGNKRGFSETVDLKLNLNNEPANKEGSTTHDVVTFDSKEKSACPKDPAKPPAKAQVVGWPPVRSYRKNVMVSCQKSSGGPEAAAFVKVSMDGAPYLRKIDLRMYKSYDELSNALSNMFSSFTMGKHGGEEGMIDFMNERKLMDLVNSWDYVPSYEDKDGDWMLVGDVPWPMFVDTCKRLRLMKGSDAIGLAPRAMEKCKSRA
Sequence of UniProt Q8RYC8 (whole entry, looked up): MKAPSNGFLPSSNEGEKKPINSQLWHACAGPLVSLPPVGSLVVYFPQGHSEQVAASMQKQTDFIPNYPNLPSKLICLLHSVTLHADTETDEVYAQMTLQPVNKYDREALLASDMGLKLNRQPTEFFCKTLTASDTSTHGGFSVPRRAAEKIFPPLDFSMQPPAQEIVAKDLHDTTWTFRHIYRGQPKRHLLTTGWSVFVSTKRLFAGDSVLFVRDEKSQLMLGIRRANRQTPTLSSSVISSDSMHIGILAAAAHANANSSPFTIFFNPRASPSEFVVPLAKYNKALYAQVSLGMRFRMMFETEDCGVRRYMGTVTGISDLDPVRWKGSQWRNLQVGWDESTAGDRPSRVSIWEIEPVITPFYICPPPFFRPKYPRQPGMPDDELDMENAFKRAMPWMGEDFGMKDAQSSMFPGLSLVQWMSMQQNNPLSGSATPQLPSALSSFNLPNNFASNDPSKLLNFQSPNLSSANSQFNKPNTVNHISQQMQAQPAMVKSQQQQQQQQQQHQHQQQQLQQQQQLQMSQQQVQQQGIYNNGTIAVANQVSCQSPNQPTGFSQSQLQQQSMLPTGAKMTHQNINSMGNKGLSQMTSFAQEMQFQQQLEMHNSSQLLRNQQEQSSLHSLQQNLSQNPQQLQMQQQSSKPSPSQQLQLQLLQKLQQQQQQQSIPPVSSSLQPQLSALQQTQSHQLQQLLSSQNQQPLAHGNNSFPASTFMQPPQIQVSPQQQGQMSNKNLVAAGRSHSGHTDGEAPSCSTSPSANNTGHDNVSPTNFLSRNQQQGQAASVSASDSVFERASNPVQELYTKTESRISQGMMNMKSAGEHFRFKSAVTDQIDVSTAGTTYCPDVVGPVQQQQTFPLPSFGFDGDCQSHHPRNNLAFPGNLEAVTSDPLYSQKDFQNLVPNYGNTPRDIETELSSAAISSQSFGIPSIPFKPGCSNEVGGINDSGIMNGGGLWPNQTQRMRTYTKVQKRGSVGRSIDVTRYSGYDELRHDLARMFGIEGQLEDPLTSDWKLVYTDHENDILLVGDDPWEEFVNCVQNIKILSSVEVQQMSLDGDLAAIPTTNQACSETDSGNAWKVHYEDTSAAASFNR
Sequence of UniProt O24408 (whole entry, looked up): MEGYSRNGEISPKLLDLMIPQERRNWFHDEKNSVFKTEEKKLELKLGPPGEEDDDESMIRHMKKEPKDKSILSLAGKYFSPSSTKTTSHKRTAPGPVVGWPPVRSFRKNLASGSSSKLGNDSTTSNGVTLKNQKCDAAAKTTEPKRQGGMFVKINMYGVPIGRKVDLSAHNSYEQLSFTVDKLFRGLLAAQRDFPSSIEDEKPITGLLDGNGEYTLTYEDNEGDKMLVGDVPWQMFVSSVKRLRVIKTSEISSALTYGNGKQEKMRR

Study 1 — target: CCNB3, cyclin fold, Cln2 fusion (human); technique: yeast growth competition, sequencing; sample: yeast; notes: weak parent motif; reference: not given; direction: higher = stronger binding; endpoint: normalised enrichment score
Parent: RBL1 docking peptide (human); GSAKRRLFGEDPP
L7P: 0.28
P13G: 0.17
G9F: 1.32
P13C: 0.911
S2V: 0.489
R5A L7A: 0.1
F8R: -0.0248
L7I: 0.992
S2C: 0.851
F8Q: -0.107
E10H: 0.521
F8Y: 0.232
P12V: 0.566
F8W: -0.261
R5A: 0.0866
R5E: 0.264
F8D: 0.422
L7N: -0.246
K4L: -0.104
P13I: 0.762
K4T: 0.293
D11I: 0.556
P13N: 0.527
E10Q: 0.795
A3K: 0.252

Study 2 — technique: RNA Bind-n-Seq; form: RNA; sample: in vitro; concentration: 100 nM; reference: input RNA pool; direction: higher = stronger binding; endpoint: bound/input enrichment
Target: RING finger protein unkempt homolog, zinc fingers 1-6, SBP tag (UNK, Homo sapiens, UniProt Q9C0B0, residues 30-357)
Sequence of UniProt Q9C0B0 (30-357, looked up): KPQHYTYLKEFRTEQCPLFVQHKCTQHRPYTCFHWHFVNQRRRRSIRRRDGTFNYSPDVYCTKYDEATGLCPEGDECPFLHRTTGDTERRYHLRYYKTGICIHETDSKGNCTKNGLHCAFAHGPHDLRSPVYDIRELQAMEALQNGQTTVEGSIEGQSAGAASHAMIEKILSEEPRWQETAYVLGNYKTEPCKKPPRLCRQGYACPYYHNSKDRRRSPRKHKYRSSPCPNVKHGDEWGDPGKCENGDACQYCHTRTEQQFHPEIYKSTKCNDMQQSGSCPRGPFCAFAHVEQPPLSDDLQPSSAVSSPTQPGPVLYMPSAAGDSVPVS
Notes: RNA with constant flanks, vertebrate orthologous sites, ends assumed
All sequences stand within: GGGAGUUCUACAGUCCGACGAUC … CAACAGAGGAUUGAGCAUCA
AGGGAGAAGAACUCACAAACUGAAAGGAAAACUAUUAAAGAGUUUCUAAUAGUUAAAAGCUAGGAAAGAUUAGGACUUUACAAAUGAGAAAUUAAAAAUAAAAGGAAAAGGAUAGGGAAA: 0.561 ratio
UCAAUCUCUUUUCCCCUGUCCUGAUUUUAAAAGCCCCCUCCUUUUUUUUUUUUCUUUUUUUAGGCAUAUGUAGUAAUAUUAGAAACAUUUAAUUUGGGAAACUUUGAUUCUUGAAAGAGA: 1.63 ratio
GCUACAGAGGGAAGAGCUCACGAACUCAAAGGAAAGCUAGUAAAGAGCUUCUAAUAAAGCUAGGAAAGAUAAGGACAAUUUUACAAAUGAGCAAUUAGAAAUAAAAGAAAAAGGAUAUGG: 0.893 ratio
AUGGUGGUUGUACAUUAUAGUUUCAUUUAGAAAAUAUAAAAAUUCAUUUUGUUUUGAAGUUAGGUAUUAAACUGGAAUAGUUAUGAUACCCCUGAGAGUGGGGACAGUUGUGCCCUUACC: 2.67 ratio
ACUGUUGUUAAGCGCUGUGUUCCAGACCGUGUCUGACUUAGCGUCACCUAGGCGACCUUCUAGUCCCAUUCGGAUGAGCUCGGGUUGAUAGAGUGCAGGGGAGCGCCACCUCGUAGCCGC: 0.491 ratio
AAAUUUAUUUCAUGCCCUGGACUCCCUACCGUACUGAUACUCUGAUAGAAUAUGCUUCUUUAGAAGAUUUCCAAAAUAGUCGCCAGACAACAACAUAUAAACUUCCUAAUCGAGUAGAUG: 0.873 ratio
AAAUCUACUUCAUGCCUUGGACUCCAUACCGAACAGACACUCUAAUCGAGUACUCCUCCUUGGAUGACUUUCAAAAUGCCCGUCAAACCAUCACCUACAAGCUGCCGCACCGGGUGGACG: 0.364 ratio
AAUUGAAUAAAAACGUUUCCACUGGGUUUUGCCUGCAAGAAAAAAAUGUACCCGAGCCCAUAGAGCUUUUUAAUAAUAGCACUAAACAAUGCCUUUUUAGAUGUAUUUUUGAUGUAUAUA: 0.894 ratio
UGUCCUUGCUAAGCACUGCGUUCCAGACCGUGUCUGACUUAGUUAACCUAGGAGAUUUUAUAGUUUUACUUUAAUGAAGUCCUGAUUAACACAGAGCAGUGGAGAGACCGUGCCCCUGUG: 0.459 ratio
UGCUGUUAAUGCACUGUAUACCAGGCAUCGUCUGAACUUAGUGUAAACUAGGAGAUUUUAUAGUUUUAUUUUAAUGAAGUAUCGAUCGAAGCAAAGCUAUUAGGAGUAUGUAGUCUUUUA: 2.02 ratio
UACUUAUUUCUUUCUUCCUGACUUUCUUUUUUCUUUCGUUUCUUUUUUCUUUUUUUUUGGUAGUUGUUGUUACCCACGCCAUUUUACGUCUCCUUCACUGAAGGGCUAGAGUUUUAACUU: 2.14 ratio

Study 3 — technique: DHFR PCA, deep sequencing; sample: yeast; together with: (+)-ABA 0 µM; reference: wild-type fitted maximum; direction: higher = stronger binding; endpoint: relative binding score
Target: ABI1, truncated, D143A, DHFR fusion (Arabidopsis thaliana)
Notes: methotrexate growth selection, single substitutions
Parent: PYL1, truncated, DHFR fusion (Arabidopsis thaliana); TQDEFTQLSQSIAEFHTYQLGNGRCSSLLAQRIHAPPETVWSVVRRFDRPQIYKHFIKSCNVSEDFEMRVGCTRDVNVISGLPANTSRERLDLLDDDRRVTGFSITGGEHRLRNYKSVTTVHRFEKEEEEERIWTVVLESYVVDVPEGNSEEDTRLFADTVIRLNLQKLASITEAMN; partner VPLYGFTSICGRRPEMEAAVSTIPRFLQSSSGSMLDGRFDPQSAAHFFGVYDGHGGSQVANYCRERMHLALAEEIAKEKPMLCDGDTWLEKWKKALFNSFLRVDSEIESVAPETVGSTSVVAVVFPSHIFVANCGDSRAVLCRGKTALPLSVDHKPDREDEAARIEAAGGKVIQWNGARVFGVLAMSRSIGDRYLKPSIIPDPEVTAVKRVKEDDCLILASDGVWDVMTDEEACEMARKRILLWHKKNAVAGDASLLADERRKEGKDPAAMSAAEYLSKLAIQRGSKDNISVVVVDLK
S42D: 15%
V44P: 0.993%
D144L: -9.89%
R155M: 6.86%
A30G: 6.81%
F5Y: 31.1%
I33L: -2.15%
N22Y: 20.2%
H110G: 25.2%
T6D: 29.5%
E14N: 7.38%
T135K: -4.88%
G23P: -2.91%
S11V: 33.6%

Study 4 — target: ATF2, bZIP domain (human); technique: DHFR protein complementation; sample: yeast; reference: wild-type JUN-FOS pair; direction: higher = stronger binding; endpoint: binding fitness
Notes: single substitutions, most at no-binding floor
Parent: JUN, bZIP domain (human); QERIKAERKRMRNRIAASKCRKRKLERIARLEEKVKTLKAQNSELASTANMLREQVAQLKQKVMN; partner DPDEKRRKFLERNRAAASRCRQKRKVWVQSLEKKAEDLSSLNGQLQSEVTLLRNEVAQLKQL
V56M: -1.48 natural log
L45Y: -1.49 natural log
V35I: -1.17 natural log
L38S: -1.46 natural log
V35G: -1.46 natural log
Q55N: -1.36 natural log
A29G: -1.35 natural log
L38E: -1.54 natural log
M51Y: -1.43 natural log
Q55L: -1.43 natural log
V35E: -1.52 natural log
T37I: -1.38 natural log
R53C: -1.4 natural log
L45M: -1.47 natural log

Study 5 — technique: RNA Bind-n-Seq; form: RNA; sample: in vitro; concentration: 200 nM; notes: whole 134-nt RNA, ends assumed; together with: 150 mM LiCl; reference: input library; direction: higher = stronger binding; endpoint: log2 enrichment; all molecules: 7-deaza-guanosine replaces G
Target: Fragile X messenger ribonucleoprotein 1, C-terminal low-complexity region (Fmr1, Mus musculus, UniProt P35922)
All sequences stand within: GGGAGUUCUACAGUCCGACGAUC … UGGAAUUCUCGGGUGUCAAGG
UCCUCAAGUCCUGUGCUACACAUCGUAUGUACCGAAUCGGGCGGGCGGCGGAAAGUAUUAUGUUACGCCGUUCGGAUCUGCACUUCCAGC: 0.918
CCUCAAGUCCUGUGCUACACAUCGUAUGUACCGAAUCGGUUUGGAGGUUUGGAAAGUAUUAUGUUACGCCGUUCGGAUCUGCACUUCCAG: -1.14
UUCUGACUCAGAAUGUGCCAAAAAGGCUUUGGAACAACUUAAUGGAUUUGAACUAGCAGGAAGACCAAUGAAAGUUGGUCAUGUUACUGA: -3.37
CACAGACAACACGCACCCACACAGACACAGAGGGAAGGGGUUGGGAUGGGGACACGGUGCACAGCAGGGCGGGGUAGGACCCCAGCCCCU: 0.0676
GCAGGAAGUAAAAACAAAUGGAAAUGCUUCGGAUAGUGGCAGGGGUGGGGGUAGCUAAGGAAAGGGUGGGAUGGGAGUGGGUAAAGAGUU: 1.85
UCAAGUCCUGUGCUACACAUCGUAUGUACCGAAUCGGGCCGGGGCCGGCCGGGGAAAGUAUUAUGUUACGCCGUUCGGAUCUGCACUUCC: 0.242
CUGUGCUACACAUCGUAUGUACCGAAUCGGGGUUUUUUUGGGGAAAAAGGGGUUUUUGGGGAAAGUAUUAUGUUACGCCGUUCGGAUCUG: -1.93
CUCAAGUCCUGUGCUACACAUCGUAUGUACCGAAUCGGGUUGGUUGGGGUUGGAAAGUAUUAUGUUACGCCGUUCGGAUCUGCACUUCCA: -0.613
UCAAGUCCUGUGCUACACAUCGUAUGUACCGAAUCGGUUUGGAAAGGUUUUUGGAAAGUAUUAUGUUACGCCGUUCGGAUCUGCACUUCC: -1.1
UGGCCCUGGUGGCAUGCGGGCAGGAAGAGGUGGCCUCAUGGAUCGUGGUGGUCCCGGUGGAAUGUUCAGAGGUGGCCGUGGUGGAGACAG: 0.133
AAGUCCUGUGCUACACAUCGUAUGUACCGAAUCGGGAAAAAAAGGGAGGGAAAGGGAAAGUAUUAUGUUACGCCGUUCGGAUCUGCACUU: -0.837

Study 6 — technique: universal PBM; form: double-stranded DNA, one strand shown; sample: in vitro; concentration: not given; direction: higher = stronger binding; endpoint: E-score
Target: Sal-like protein 4, full length isoform B (SALL4, Homo sapiens, UniProt Q9UJQ4-2, residues 1-616)
Notes: 8-mer, flanks averaged, mean of replicates
Target sequence (chain): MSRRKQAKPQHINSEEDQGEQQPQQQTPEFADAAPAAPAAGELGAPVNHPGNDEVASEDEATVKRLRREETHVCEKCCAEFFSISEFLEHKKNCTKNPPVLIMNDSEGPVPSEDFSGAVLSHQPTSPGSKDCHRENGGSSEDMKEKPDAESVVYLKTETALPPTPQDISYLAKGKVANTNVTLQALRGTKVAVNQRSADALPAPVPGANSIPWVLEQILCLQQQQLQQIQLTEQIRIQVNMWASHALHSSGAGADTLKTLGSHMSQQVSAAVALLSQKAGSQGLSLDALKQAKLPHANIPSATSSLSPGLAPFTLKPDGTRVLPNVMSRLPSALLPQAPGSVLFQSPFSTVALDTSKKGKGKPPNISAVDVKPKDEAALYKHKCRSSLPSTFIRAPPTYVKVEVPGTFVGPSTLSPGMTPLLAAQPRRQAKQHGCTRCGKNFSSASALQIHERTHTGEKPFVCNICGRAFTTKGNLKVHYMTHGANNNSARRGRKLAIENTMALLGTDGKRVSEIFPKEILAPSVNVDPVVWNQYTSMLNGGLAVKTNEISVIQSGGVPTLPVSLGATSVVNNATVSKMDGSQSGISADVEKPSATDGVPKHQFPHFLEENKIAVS
CTTAGCCA: 0.0468
CAGAAACG: 0.0196
AACGGATA: 0.052
ATTTCTAG: 0.175
AAGATTAA: 0.287
ATCAGGCA: -0.0599
CCAATCCC: -0.161
ATCTATTA: 0.309
AATCAGCC: -0.189
AAATTTAA: 0.341
CATGGACA: -0.0647
CGTTACTA: 0.189
GCTTTCTA: 0.113
CCGGCCCG: -0.409
GACTAAAC: -0.0594
AATTTTGA: 0.326
ATGGGAGC: -0.156
AGAAAGAG: -0.0741
GGGCCCTA: -0.179
ACTAACTG: -0.0848
ATGACTTG: 0.0752

Study 7 — technique: two-hybrid; direction: higher = firmer interaction; endpoint: positive tests
Substance: IAA9 (Arabidopsis thaliana, UniProt Q38827)
Sequence of UniProt Q38827 (whole entry, looked up): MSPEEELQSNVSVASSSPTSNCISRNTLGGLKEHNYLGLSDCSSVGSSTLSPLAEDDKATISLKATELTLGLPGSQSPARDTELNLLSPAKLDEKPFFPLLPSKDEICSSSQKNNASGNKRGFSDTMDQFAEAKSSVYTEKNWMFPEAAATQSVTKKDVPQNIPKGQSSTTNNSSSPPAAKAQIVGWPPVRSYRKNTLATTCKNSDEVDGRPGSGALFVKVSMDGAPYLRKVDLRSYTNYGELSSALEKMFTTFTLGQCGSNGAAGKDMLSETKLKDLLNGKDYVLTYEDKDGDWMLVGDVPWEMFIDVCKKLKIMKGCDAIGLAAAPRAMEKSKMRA
IAA15 (Arabidopsis thaliana, UniProt Q9C966); reference: out of 2 tests: 2
ARF14 497-605 (Arabidopsis thaliana, UniProt Q9LQE8); reference: out of 2 tests: 0
ARF11 500-622 (Arabidopsis thaliana, UniProt Q9ZPY6); reference: out of 4 tests: 1
ARF22 498-598 (Arabidopsis thaliana, UniProt Q9C8N7); reference: out of 2 tests: 2
IAA30 (Arabidopsis thaliana, UniProt Q9M1R4); weak activation fusion; reference: out of 0 tests: 0
ARF2 727-859 (Arabidopsis thaliana, UniProt Q94JM3); reference: out of 4 tests: 1
IAA11 (Arabidopsis thaliana, UniProt Q38829); weak activation fusion; reference: out of 2 tests: 2
IAA18 (Arabidopsis thaliana, UniProt O24408); reference: out of 2 tests: 2
IAA20 (Arabidopsis thaliana, UniProt O24410); weak activation fusion; reference: out of 0 tests: 0
IAA19 (Arabidopsis thaliana, UniProt O24409); reference: out of 4 tests: 4
IAA10 (Arabidopsis thaliana, UniProt Q38828); reference: out of 2 tests: 2
IAA31 (Arabidopsis thaliana, UniProt Q8H174); reference: out of 2 tests: 0
ARF1 538-665 (Arabidopsis thaliana, UniProt Q8L7G0); reference: out of 4 tests: 0
IAA29 (Arabidopsis thaliana, UniProt Q93WC4); reference: out of 4 tests: 1
ARF18 482-602 (Arabidopsis thaliana, UniProt Q9C5W9); reference: out of 4 tests: 1
ARF7 1030-1164 (Arabidopsis thaliana, UniProt P93022); reference: out of 0 tests: 0
IAA27 (Arabidopsis thaliana, UniProt Q9ZSY8); reference: out of 2 tests: 2
ARF19 948-1086 (Arabidopsis thaliana, UniProt Q8RYC8); reference: out of 2 tests: 1
ARF17 (Arabidopsis thaliana, UniProt Q84WU6); weak activation fusion; reference: out of 2 tests: 1
IAA17 (Arabidopsis thaliana, UniProt P93830); reference: out of 2 tests: 2
ARF16 570-670 (Arabidopsis thaliana, UniProt Q93YR9); reference: out of 4 tests: 0

A few entries again (study 6):
CTTAGCCA: 0.0468
CAGAAACG: 0.0196
AACGGATA: 0.052
ATTTCTAG: 0.175
AAGATTAA: 0.287
ATCAGGCA: -0.0599
